Experimental data collected from several papers.
± gives the spread as reported.

SMILES	organism	test	system	setting	inhibition
C[C@@H]1O[C@@H](OC[C@H]2O[C@@H](OCCc3ccc(O)c(O)c3)[C@H](O)[C@@H](O)[C@@H]2OC(=O)/C=C/c2ccc(O)c(O)c2)[C@H](O)[C@H](O)[C@H]1O	Pseudovirus, SARS-CoV-2 spike	viral entry		concentration not given	35.4%
CS(=O)(=O)NCC1CCOC2(CCN(C(=O)C3(c4ccccc4)CCCCC3)CC2)C1 (stereo not shown)	Venezuelan equine encephalitis virus	viral replication		40 µM	60%
O=C(O[C@@H]1Cc2c(O)cc(O)cc2O[C@@H]1c1cc(O)c(O)c(O)c1)c1cc(O)c(O)c(O)c1	Severe acute respiratory syndrome coronavirus 2	cytopathic effect	Vero C1008	6.25 µM	0%
CN(C)S(=O)(=O)NCC1CCOC2(CCN(C(=O)C3(c4cccc(C(F)(F)F)c4)CCCC3)CC2)C1 (stereo not shown)	Venezuelan equine encephalitis virus	viral replication		40 µM	50%
CCc1ccc(NC(=O)c2cc3c(=O)n4ccccc4nc3n2C)cc1	Severe acute respiratory syndrome coronavirus 2	viral replication, inhibitor, qPCR	Vero C1008	10 µM	96.2%
CC(C)(C)NC(=O)NCC1CCOC2(CCN(C(=O)C3(c4ccccc4)CCCC3)CC2)C1 (stereo not shown)	Venezuelan equine encephalitis virus	viral replication		40 µM	50%
Cn1cnc(Cn2c(=O)[nH]/c(=N\c3cc4cn(C)nc4cc3Cl)n(Cc3cc(F)c(F)cc3F)c2=O)n1	Severe acute respiratory syndrome coronavirus 2	viral replication	Vero C1008	1.389 µM	100%
CC(=O)c1cccc(NC(=O)c2cc3c(=O)n4ccccc4nc3n2C)c1	Severe acute respiratory syndrome coronavirus 2	viral replication, inhibitor, qPCR	Vero C1008	1 µM	92.5%
CN[C@H](CC(C)C)C(=O)N[C@H]1C(=O)N[C@@H](CC(N)=O)C(=O)N[C@H]2C(=O)N[C@H]3C(=O)N[C@H](C(=O)N[C@H](C(=O)O)c4cc(O)cc(O)c4-c4cc3ccc4O)[C@H](O)c3ccc(c(Cl)c3)Oc3cc2cc(c3O[C@@H]2O[C@H](CO)[C@@H](O)[C@H](O)[C@H]2O[C@H]2C[C@](C)(N)[C@H](O)[C@H](C)O2)Oc2ccc(cc2Cl)[C@H]1O	SARS-CoV-2 pseudovirus	viral entry		10 µM, 48 h	20.3 ± 4.78%
CC(C)(C)[C@H](NC(=O)C(F)(F)F)C(=O)N1C[C@H]2[C@@H]([C@H]1C(=O)N[C@H](C#N)C[C@@H]1CCNC1=O)C2(C)C	SARS-CoV-2	viral replication, infectious virus	Vero E6	0.25 µM	100%
COc1ccccc1NC(=O)NCC1CCOC2(CCN(C(=O)C3(c4ccccc4)CCCC3)CC2)C1 (stereo not shown)	Venezuelan equine encephalitis virus	viral replication		40 µM	40%
O=C(NC1CCCCC1)C(c1cccs1)N(Cc1ccc2c(c1)OCO2)C(=O)Cc1c[nH]c2ccccc12 (stereo not shown)	Rickettsia prowazekii		Vero cells	9.4 µM, 72 h	21%
O=C(NCC1CCOC2(CCN(C(=O)C3(c4ccccc4)CCCC3)CC2)C1)Nc1ccccc1 (stereo not shown)	Venezuelan equine encephalitis virus	viral replication		40 µM	70%
COc1ccc(C[C@@H]2c3cc(Oc4cc(C[C@@H]5c6cc(O)c(OC)cc6CCN5C)ccc4O)c(OC)cc3CCN2C)cc1	Severe acute respiratory syndrome coronavirus 2	cytopathic effect	Vero C1008	6.25 µM	0%
CC(C)(C)C(O)(CCc1ccc(Cl)cc1)Cn1cncn1 (stereo not shown)	Xanthomonas oryzae pv. oryzicola	bacterial growth		128 µg/mL	100%
Nc1ccn([C@@H]2O[C@H](CO)[C@@H](O)C2(F)F)c(=O)n1	Enterovirus C	viral replication, item: Gaussia luciferase	HeLa	10 µM, 48 h	96.6%

SMILES	organism	test	system	setting	inhibition
CN1CCN(C(c2ccccc2)c2ccc(Cl)cc2)CC1 (stereo not shown)	Marburg marburgvirus	viral entry	A549	12.5 µM	≥ 75%
Cc1ccc(NC(=O)c2cc3c(=O)n4cccc(C)c4nc3n2C)cc1Cl	Severe acute respiratory syndrome coronavirus 2	viral replication, inhibitor, qPCR	Vero C1008	10 µM	96.5%
CCCC1C(=O)N2C(N(C)C)=Nc3ccc(C)cc3N2C1=O (stereo not shown)	Enterovirus C	viral replication, item: Gaussia luciferase	HeLa	10 µM, 48 h	94.1%
Cn1c(C(=O)Nc2ccc(Cl)cc2)cc2c(=O)n3ccccc3nc21	Severe acute respiratory syndrome coronavirus 2	viral replication, inhibitor, qPCR	Vero C1008	10 µM	94.1%
CCC(C)n1ncn(-c2ccc(N3CCN(c4ccc(OCC5COC(Cn6cncn6)(c6ccc(Cl)cc6Cl)O5)cc4)CC3)cc2)c1=O (stereo not shown)	Enterovirus C	viral replication, item: Gaussia luciferase	HeLa	10 µM, 48 h	96%
C=C[C@@](C)(/C=C/c1ccc(O)cc1)CCC=C(C)C	Severe acute respiratory syndrome coronavirus 2	cytopathic effect, inhibitor	Vero C1008	100 µM	0%
Nc1ncnc2c([C@@H]3N[C@H](CO)[C@@H](O)[C@H]3O)c[nH]c12	Junin virus	viral replication	HeLa, Romero	3.1 µM	1.9%
O=C(NCC1CCOC2(CCN(C(=O)C3(c4ccccc4)CCCC3)CC2)C1)C1CC1 (stereo not shown)	Venezuelan equine encephalitis virus	viral replication		40 µM	70%
COc1ccc([C@@]23Oc4cc(OC)cc(OC)c4[C@@]24NC(C)=N[C@@]4(O)[C@H](C(=O)N(C)OC)[C@H]3c2ccccc2)cc1	SARS-CoV	cell-based		concentration not given	~50%
CC(=O)N1CCN(c2ccc(OCC3COC(Cn4ccnc4)(c4ccc(Cl)cc4Cl)O3)cc2)CC1 (stereo not shown)	Enterovirus C	viral replication, item: Gaussia luciferase	HeLa	10 µM, 48 h	83%
CN(C)S(=O)(=O)NCC1CCOC2(CCN(C(=O)C3(c4ccncc4)CCCC3)CC2)C1 (stereo not shown)	Venezuelan equine encephalitis virus	viral replication		40 µM	< 10%
O=C(/C=C/c1ccc(O)c(O)c1/C=C/c1ccc(O)c(O)c1)O[C@H](Cc1ccc(O)c(O)c1)C(=O)O	Severe acute respiratory syndrome coronavirus 2	cytopathic effect, inhibitor	Vero C1008	6.25 µM	0%
O=C(Nc1ccccc1F)c1cc2c(=O)n3ccccc3nc2n1Cc1ccccc1	Severe acute respiratory syndrome coronavirus 2	viral replication, inhibitor, qPCR	Vero C1008	1 µM	83.5%
CS(=O)(=O)NCC1CCOC2(CCN(C(=O)C3(c4ccc(Cl)cc4)CCCC3)CC2)C1 (stereo not shown)	Venezuelan equine encephalitis virus	viral replication		40 µM	30%
CC(C)=CCc1c(O)ccc(C(=O)/C=C/c2ccc(O)cc2)c1O	Severe acute respiratory syndrome coronavirus 2	cytopathic effect, inhibitor	Vero C1008	0.7812 µM	0%

Repeated from above:
SMILES	organism	test	system	setting	inhibition
Nc1ncnc2c([C@@H]3N[C@H](CO)[C@@H](O)[C@H]3O)c[nH]c12	Junin virus	viral replication	HeLa, Romero	3.1 µM	1.9%
O=C(NCC1CCOC2(CCN(C(=O)C3(c4ccccc4)CCCC3)CC2)C1)C1CC1 (stereo not shown)	Venezuelan equine encephalitis virus	viral replication		40 µM	70%
COc1ccc([C@@]23Oc4cc(OC)cc(OC)c4[C@@]24NC(C)=N[C@@]4(O)[C@H](C(=O)N(C)OC)[C@H]3c2ccccc2)cc1	SARS-CoV	cell-based		concentration not given	~50%
